Experimental data gathered from unrelated publications.
Protocols differ between the studies behind these lines. Numbers after ± are the reported error.
Technique: steady-state kinetics
B1: enzyme (Vibrio cholerae, UniProt Q9KKP2); chain MNQSSLLAEFGDPITRVENALQALREGRGVLLLDDEDRENEGDIIYAVESLTTAQMALMIRECSGIVCLCLTEAQADRLALPPMVVNNNSANQTAFTVSIEAKHGVTTGVSAQDRVTTIKTAANPQAKPEDLARPGHVFPLRARAGGVLARRGHTEGTVDLMQMAGLQPAGVLCELTNPDGSMAKTPEIIEFGKLHNMPVLTIEDMVQYRIQFDLKLA
B2: enzyme E217L/L163H/N249W (Thermobifida fusca, UniProt Q47RK4); chain MTDVYILDAVRTPFGRYGGALSGIRPDDLAAHVLRALAERSPGLDPAAVDDVFFGDANGAGEDNRNVARMAALLAGWPTSVPGVTLNRLCGSGMESVIAANRAIAVGDASLAVAGGVESMSRAPWVLPKPAQGFPTGHETLYSTTLGWRMVNPAMPEQWTVSHGESTEQVAATYGISRAEQDAFALRSHERAARAWAEGVFDAEITQIPGAELERDLSIRETSAEKLAALKPAFRPDGTITAGNASPLWDGAAALLIGDAAAAERVGREPLARIVSRGVAAVDPDVFGIGPVQAAEIALRRAGIGWDDLSVVELNEAFAAQSLACLKLWPDLDPEIVNPNGGAIAIGHPLGASGARIVGTLAHELHRRGGGWGLAAICIGVGQGLAVVLHR
B3: protein F432L (Streptomyces toyocaensis, UniProt Q8KLK7); chain MTTVLPPLEDTDGLWAALTEAAASVEKLLATLPEHGARSSAERAEIAAAHDAARALRVRFLDTHADAVYDRLTDHRRVHLRLAELVEAAATAFPGLVPTQQQLAVERSLPQAAKEGHEIDQGIFLRAVLRSPLAGPHLLDAMLRPTPRALELLPEFVRTGEVEMEAVHLERRDGVARLTMCRDDRLNAEDGQQVDDMETAVDLALLDPGVRVGLLRGGVMSHPRYRGKRVFSAGINLKYLSQGGISLVDFLMRRELGYIHKLVRGVLTNDDRPGWWHSPRIEKPWVAAVDGFAIGGGAQLLLVFDRVLASSDAYFSLPAAKEGIIPGAANLRLGRFAGPRVSRQVILEGRRIWAKEPEARLLVDEVVEPDELDAAIERSLTRLDGDAVLANRRMLNLADESPDGFRAYMAEFALMQALRLYGHDVIDKVGRLGGRPPA
B4: sbnA (Staphylococcus aureus, UniProt A6QDA0); chain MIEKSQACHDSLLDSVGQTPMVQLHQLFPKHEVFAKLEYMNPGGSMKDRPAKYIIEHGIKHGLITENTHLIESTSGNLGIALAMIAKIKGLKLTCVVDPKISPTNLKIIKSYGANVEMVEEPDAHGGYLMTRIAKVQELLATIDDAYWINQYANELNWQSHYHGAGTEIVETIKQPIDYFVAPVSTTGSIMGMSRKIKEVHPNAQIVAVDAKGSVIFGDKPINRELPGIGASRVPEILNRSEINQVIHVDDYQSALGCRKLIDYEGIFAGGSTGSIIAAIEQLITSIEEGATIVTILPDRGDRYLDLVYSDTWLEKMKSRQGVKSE
B5: nitrilase Y142A (Rhodococcus rhodochrous, UniProt A4LA85); chain MVEYTNTFKVAAVQAQPVWFDAAKTVDKTVSIIAEAARNGCELVAFPEVFIPGYPYHIWVDSPLAGMAKFAVRYHENSLTMDSPHVQRLLDAARDHNIAVVVGISERDGGSLYMTQLIIDADGQLVARRRKLKPTHVERSVAGEGNGSDISVYDMPFARLGALNCWEHFQTLTKYAMYSMHEQVHVASWPGMSLYQPEVPAFGVDAQLTATRMYALEGQTFVVCTTQVVTPEAHEFFCENEEQRKLIGRGGGFARIIGPDGRDLATPLAEDEEGILYADIDLSAITLAKQAADPVGHYSRPDVLSLNFNQRRTTPVNTPLSTIHATHTFVPQFGALDGVRELNGADEQRALPSTHSDETDRATASI
B6: enzyme H189D (Acetivibrio thermocellus, UniProt A3DJ38); chain MKLTIPELSLVVLIGSSGSGKSTFAKKHFKPTEVISSDFCRGLVSDDENDQTVTGAAFDVLHYIVSKRLQLGKLTVVDATNVQESARKPLIEIAKDYHCFPVAVVFNLPEKVCQERNKNRTDRQVEEYVIRKHTQQLKKSIKGLQREGFRYVYILNSPEEVEEVVFERQPLWNNKKDEHGPFDIIGDIDGCYDELKMLLEKLGYLIEEVEGGVGSGKYRVTHPEGRKVLFLGDLVDRGPKITEVLKLVMGMVKSGIALCVPGNHDVKLLRKLNGRDVQITHGLDRTLEQLAKEPQEFIEEVKAFIDGLVSHYVLDDGKLVVAHAGMKEEFQGRGSGKVREFALYGETTGETDEYGLPVRYDWASDYRGKALVVYGHTPQAEVLKVNNTINIDTGCVFGGKLTAYRYPEREIVDVKALKTYYEPAKPFLPKEDMAERFEARTDNDILDINDVLGKKIITTRLMSSITIHEENSIAALEVMSRFAADPHWLIYLPPTMSPCETSKKEGMLEHPIEAFEYFRTRGVGKVVCEQKHMGSRAVVIVCKDSQVAEKRFGVLDGTAGICYTRTGRHFFDDMQLEAELIDRVRKVLDKSGFWGDFNTDWVCLDCELMPWSAKAQKLLEEQYSAVGISGRVVLDEAVKLLKQASLNKTVSFDVSRQTSGKNADINELLQRFTERSEMMQKYVEAYRKYCWPVNSIDDLKLAPFHILATEGKVHSDKNHIWHMDTIAKYCTQDDSLIMATNHILVDVTDAESVDKGIKWWEDLTASGGEGMVVKPYDFIVKNGRELLQPAVKCRGREYLRIIYGPEYTMDENIERLRNRAVGKKRSLALREFSLGMEALERFVRNEPLYRVHECVFGVLALESEPVDPRL

B1 (enzyme) — kcat (O=C(CO)[C@H](O)[C@H](O)COP(=O)(O)O; pH 7.5): 0.0367 ± 0.00333 s⁻¹
B2 (enzyme E217L/L163H/N249W) — kcat (CC(C)(COP(=O)(O)OP(=O)(O)OC[C@H]1O[C@@H](n2cnc3c(N)ncnc32)[C@H](O)[C@@H]1OP(=O)(O)O)[C@@H](O)C(=O)NCCC(=O)NCCSC(=O)CCCC(=O)O; pH 7.4, 37 °C): 0.005 ± 0.0007 s⁻¹
B3 (protein F432L) — kcat (CC(C)(COP(=O)(O)OP(=O)(O)OC[C@H]1O[C@@H](n2cnc3c(N)ncnc32)[C@H](O)[C@@H]1OP(=O)(O)O)[C@@H](O)C(=O)NCCC(=O)NCCSC(=O)Cc1cc(O)cc(O)c1; pH 7.5, 24 °C, together with: O2): 0.03 ± 0.02 s⁻¹
enzyme (Delftia acidovorans, UniProt A9BQX8) — kcat (NC(=O)C1=CN([C@@H]2O[C@H](COP(=O)(O)OP(=O)(O)OC[C@H]3O[C@@H](n4cnc5c(N)ncnc54)[C@H](O)[C@@H]3O)[C@@H](O)[C@H]2O)C=CC1; cofactor varied): 16.6 ± 0.2 s⁻¹
B4 (sbnA) — kcat (N[C@@H](CCC(=O)O)C(=O)O; pH 8, 25 °C, together with: OPS): 3.6 ± 0.06 s⁻¹
enzyme (Campylobacter jejuni, UniProt Q0P9V0) — kcat (N=C(N)NCCCCN; pH 7, 37 °C): 0.00533 ± 0.000333 s⁻¹
pat (Salmonella enterica, UniProt Q8ZMX2) — kcat (CC(=O)SCCNC(=O)CCNC(=O)[C@H](O)C(C)(C)COP(=O)(O)OP(=O)(O)OC[C@H]1O[C@@H](n2cnc3c(N)ncnc32)[C@H](O)[C@@H]1OP(=O)(O)O; pH 7.5, 37 °C, apparent, sigmoidal fit, together with: AcsC 400 µM): 4.3 ± 0.3 s⁻¹
B5 (nitrilase Y142A) — kcat (N#Cc1ccccn1; pH 7.5, 25 °C): 0.0003083 ± 1.67e-06 s⁻¹
azu N36H/Q28M/Q34H (Pseudomonas aeruginosa) — kcat (O=NO; pH 6.35): 0.00633 s⁻¹
B6 (enzyme H189D) — kcat (Nc1ncnc2c1ncn2[C@@H]1O[C@H](CO)[C@H]2OP(=O)(O)O[C@H]21; pH 7.5, 45 °C): 34.3 ± 8 s⁻¹
tgt C145V/P147N/T146V/V217G (Escherichia coli) — kcat (Nc1nc2nc[nH]c2c(=O)[nH]1; pH 7.3, 37 °C): 0.00062 s⁻¹

Some of these lines once more:
B1 (enzyme) — kcat (O=C(CO)[C@H](O)[C@H](O)COP(=O)(O)O; pH 7.5): 0.0367 ± 0.00333 s⁻¹
